Published values pooled from the literature.
Numbered parts are unrelated; each lists some results of a single study. Positions count from the first letter of the parent shown.
UniProt O15294, sequence (whole entry, looked up): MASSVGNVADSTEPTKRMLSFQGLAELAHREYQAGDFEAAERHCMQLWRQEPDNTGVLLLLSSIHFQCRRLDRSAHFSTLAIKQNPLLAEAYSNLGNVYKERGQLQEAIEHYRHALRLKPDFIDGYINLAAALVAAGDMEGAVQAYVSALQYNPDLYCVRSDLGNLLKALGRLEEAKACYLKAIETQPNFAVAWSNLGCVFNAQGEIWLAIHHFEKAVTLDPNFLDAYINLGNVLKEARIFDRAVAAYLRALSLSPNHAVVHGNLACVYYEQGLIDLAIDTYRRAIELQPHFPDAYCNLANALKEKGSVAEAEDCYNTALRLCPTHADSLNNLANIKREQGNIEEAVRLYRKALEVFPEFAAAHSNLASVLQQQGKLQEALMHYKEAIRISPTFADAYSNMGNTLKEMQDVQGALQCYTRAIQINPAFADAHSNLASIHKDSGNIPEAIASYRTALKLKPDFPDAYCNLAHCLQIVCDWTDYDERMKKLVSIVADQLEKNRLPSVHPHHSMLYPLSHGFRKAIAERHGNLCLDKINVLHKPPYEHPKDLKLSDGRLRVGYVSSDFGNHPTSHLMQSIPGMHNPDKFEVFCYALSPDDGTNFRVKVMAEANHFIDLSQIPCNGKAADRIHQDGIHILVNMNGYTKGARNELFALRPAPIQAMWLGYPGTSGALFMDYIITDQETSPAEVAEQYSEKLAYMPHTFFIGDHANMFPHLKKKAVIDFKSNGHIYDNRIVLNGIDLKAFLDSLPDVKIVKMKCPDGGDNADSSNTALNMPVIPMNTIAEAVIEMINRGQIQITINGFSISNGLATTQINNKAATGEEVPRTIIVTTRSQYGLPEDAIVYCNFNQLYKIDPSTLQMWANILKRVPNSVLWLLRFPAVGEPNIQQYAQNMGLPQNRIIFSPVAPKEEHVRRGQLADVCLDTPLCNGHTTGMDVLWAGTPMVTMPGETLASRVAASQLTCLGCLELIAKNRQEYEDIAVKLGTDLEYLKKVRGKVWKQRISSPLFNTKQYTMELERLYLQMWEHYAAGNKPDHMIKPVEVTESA

Series 1
Target: Fragile X messenger ribonucleoprotein 1, C-terminal low-complexity region (Fmr1, Mus musculus, UniProt P35922)
Method: RNA Bind-n-Seq
Form: RNA
Sample: in vitro
Tested at: 200 nM
Notes: whole 134-nt RNA, ends assumed
Together with: 150 mM LiCl
Reference: input library
Direction: higher = stronger binding
Library: 7-deaza-guanosine replaces G
All sequences stand within: GGGAGUUCUACAGUCCGACGAUC … UGGAAUUCUCGGGUGUCAAGG
| Sequence | log2 enrichment |
| --- | --- |
| AAGUCCUGUGCUACACAUCGUAUGUACCGAAUCAAACCCAAACCCCCAAACCCAAAAAAGUAUUAUGUUACGCCGUUCGGAUCUGCACUU | 0.111 |
| ACCAUGCAGGUGGGCAUCUUUGGGAAGUGGGGCAAGGGGGGGAUAGGGAGGUGGGUAACACUUUGGGAACAGGUGGUCCCAGGUCGUUUC | 1.12 |
| CCUCAAGUCCUGUGCUACACAUCGUAUGUACCGAAUCGGGCGGGGCGGGCGGGAAAGUAUUAUGUUACGCCGUUCGGAUCUGCACUUCCA | -0.966 |
| AAGUCCUGUGCUACACAUCGUAUGUACCGAAUCGGGAGGGUUUUUUUGGGAAAGGGAAAGUAUUAUGUUACGCCGUUCGGAUCUGCACUU | -0.545 |
| UAACUUUAGAGGAGGAUCUGAUGGAUAUGGCAGUGGUCGUGGAUUUGGGGAUGGCUAUAAUGGGUAUGGAGGAGGACCUGGAGGUGGCAA | 9.53e-05 |
| ACCAUGCAGGUGGGCAUCUUUGGGAAGUGGGGCAAGGGGGGGAUAGGGAGGGGGGUAACACUUUGGGAACAGGUGGUCCGAGGUCGUUUC | 1.14 |
| UUACUAGAAAAGGCAGAAGCCCGUGAACGUGAAAGAGAAAAAGAAGAGGCUCGGAAGAUGAAACGAAAAGAAUCUGCAUUUAAGAGUAUG | -2.61 |
| AGUCCUGUGCUACACAUCGUAUGUACCGAAUCGGCCCCGGGGCCCCGGGGCCCCGGGGAAAGUAUUAUGUUACGCCGUUCGGAUCUGCAC | -0.543 |

Series 2
Target: Centromere-binding protein 1, full length, His-tagged (CBF1, Saccharomyces cerevisiae, UniProt P17106, residues 1-351)
UniProt P17106, sequence (whole entry, looked up): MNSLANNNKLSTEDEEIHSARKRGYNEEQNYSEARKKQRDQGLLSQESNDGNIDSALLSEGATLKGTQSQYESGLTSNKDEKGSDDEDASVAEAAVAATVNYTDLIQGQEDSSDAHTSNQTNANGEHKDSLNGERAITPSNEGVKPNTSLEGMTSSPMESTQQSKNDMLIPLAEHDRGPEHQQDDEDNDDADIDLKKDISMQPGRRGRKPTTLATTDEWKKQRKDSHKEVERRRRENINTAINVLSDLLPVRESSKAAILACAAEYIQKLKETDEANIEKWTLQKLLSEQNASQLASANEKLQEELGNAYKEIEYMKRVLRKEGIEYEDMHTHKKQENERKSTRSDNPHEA
Method: competition protein-binding microarray
Form: double-stranded DNA, one strand shown
Sample: in vitro
Tested at: 2 µM
Notes: whole 60-bp probe, lowest competitor level
Together with: Pho4 competitor, 0.05 µM
Direction: higher = stronger binding
All sequences stand within: … GTCTTGATTCGCTTGACGCTGCTG
| Sequence | fluorescence intensity [a.u.] |
| --- | --- |
| TCTTGTTCGGCCGGTAGCGTGCCGATTCAGGTAACG | 73 |
| AAGGCAGAGGTTGGAAACGTGTGGAGACTCCAAATG | 86 |
| CGGGGTTAAGTTTTTCACGTGTACTGCTTGCAGCAG | 620 |
| CGTCCTAGTGATTTTCACGTGCCCTCCATGAGGAAG | 1150 |
| CGGGGTTAAGTTTGTCTGGTGGGTGGCTTGCAGCAG | 77.4 |
| AAGATTACCAATCACCACGTTATTTGAGAGAGGATG | 114 |
| CGGGGTTAAGTTTGACTGGTGGGTGGCTTGCAGCAG | 76.7 |
| AGCAAGAAAACCCATCACGTGTGGATTCGGACCAAA | 2980 |

Series 3
Target: Prothrombin, mature alpha-thrombin (F2, Homo sapiens, UniProt P00734)
Method: aptamer microarray, sandwich
Form: DNA with 2'F-ANA
Sample: in vitro
Tested at: 200 nM
Notes: whole 15-mer aptamer, many near background
Together with: Cy3 exosite-II aptamer, 400 nM
Direction: higher = stronger binding
Sequence: GGTTGGTGTGGTTGG
| Modification | mean fluorescence intensity [a.u.] |
| --- | --- |
| 2'F-ANA at 2 4 9 10 15 | 93 |
| 2'F-ANA at 1 3 4 5 6 7 9 10 14 15 | 46.8 |
| 2'F-ANA at 1 4 5 6 8 9 13 14 15 | 72.4 |
| 2'F-ANA at 1 2 5 6 8 12 | 118 |
| 2'F-ANA at 1 2 4 5 9 11 12 13 | 66.2 |
| 2'F-ANA at 3 6 7 10 12 13 14 | 391 |
| 2'F-ANA at 2 3 5 7 8 9 11 12 13 14 | 62.7 |
| 2'F-ANA at 3 5 8 9 10 11 14 | 52.1 |

Series 4
Target: CCNA1, cyclin fold, Cln2 fusion (human)
Method: yeast growth competition, sequencing
Sample: yeast
Notes: weak parent motif
Reference: not given
Direction: higher = stronger binding
Starting sequence: viral docking peptide; KGVKRKLFAEDSS; partner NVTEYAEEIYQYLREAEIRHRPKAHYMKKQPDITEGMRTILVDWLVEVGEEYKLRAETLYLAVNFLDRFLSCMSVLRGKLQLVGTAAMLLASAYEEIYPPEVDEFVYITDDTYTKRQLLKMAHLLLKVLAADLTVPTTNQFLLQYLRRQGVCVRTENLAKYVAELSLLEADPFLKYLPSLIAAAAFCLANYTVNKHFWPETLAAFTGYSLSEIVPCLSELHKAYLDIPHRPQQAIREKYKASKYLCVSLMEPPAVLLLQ
| Variant | normalised enrichment score |
| --- | --- |
| L7C | 0.199 |
| R5G | -0.472 |
| V3E | 0.35 |
| K6P | 0.0886 |
| F8H | -0.0233 |
| K6T | 0.909 |
| S12A | 0.964 |
| S12H | 0.665 |
| F8N | -0.0262 |
| A9K | 0.629 |
| V3Y | 0.915 |
| G2Q | 1.35 |
| D11R | 0.471 |
| A9E | 1.32 |
| S12N | 1.38 |
| K6G | 1.02 |
| R5M | 0.0786 |
| R5V | 0.448 |
| L7D | -0.0568 |
| K6R | 1.73 |
| K4W | -0.249 |
| K4C | 0.79 |
| L7Q | 0.349 |
| S12D | 1.19 |
| A9G | 1.2 |

Mixed results
P1: PafA, mature enzyme, eGFP fusion (Elizabethkingia meningoseptica, UniProt Q9KJX5); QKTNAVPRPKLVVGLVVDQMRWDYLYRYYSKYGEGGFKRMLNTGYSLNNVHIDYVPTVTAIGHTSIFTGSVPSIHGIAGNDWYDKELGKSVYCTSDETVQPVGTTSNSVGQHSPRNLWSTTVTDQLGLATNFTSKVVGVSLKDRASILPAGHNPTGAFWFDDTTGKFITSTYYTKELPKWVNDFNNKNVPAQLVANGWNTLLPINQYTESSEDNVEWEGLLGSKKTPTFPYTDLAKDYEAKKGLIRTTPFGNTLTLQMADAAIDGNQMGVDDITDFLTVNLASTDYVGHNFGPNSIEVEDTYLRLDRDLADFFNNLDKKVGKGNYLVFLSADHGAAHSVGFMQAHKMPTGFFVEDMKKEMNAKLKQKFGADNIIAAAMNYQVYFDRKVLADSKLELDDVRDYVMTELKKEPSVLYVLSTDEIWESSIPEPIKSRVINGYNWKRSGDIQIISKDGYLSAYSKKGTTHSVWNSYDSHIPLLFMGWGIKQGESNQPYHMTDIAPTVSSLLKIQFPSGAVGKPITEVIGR
| Substance | target | assay | system | conditions | scale | quantity | value |
| --- | --- | --- | --- | --- | --- | --- | --- |
| P1 A370G | tungstate, free oxyanion | microfluidic competitive inhibition | in vitro, cell-free expressed | not given, derived from inhibition constants, unchanged parent 2230 nM | lower = stronger binding | oxyanion analog dissociation constant | 2.07 µM |
| HPWPYIMEHEHHHYK | OGT (Homo sapiens, UniProt O15294) | binding, phage display NGS | peptide | panning round 2 | reference: input library | minimum log2 enrichment ratio | 2.84 |

For quick reference, copied from above (series 2):
| Sequence | fluorescence intensity [a.u.] |
| --- | --- |
| TCTTGTTCGGCCGGTAGCGTGCCGATTCAGGTAACG | 73 |
| AAGGCAGAGGTTGGAAACGTGTGGAGACTCCAAATG | 86 |
| CGGGGTTAAGTTTTTCACGTGTACTGCTTGCAGCAG | 620 |
| CGTCCTAGTGATTTTCACGTGCCCTCCATGAGGAAG | 1150 |
| CGGGGTTAAGTTTGTCTGGTGGGTGGCTTGCAGCAG | 77.4 |
| AAGATTACCAATCACCACGTTATTTGAGAGAGGATG | 114 |
| CGGGGTTAAGTTTGACTGGTGGGTGGCTTGCAGCAG | 76.7 |
